Assay results pooled from the literature.
Protocols differ between the studies behind these lines. “And” joins repeats or separate records; there may be more than shown. ± gives the spread as reported.
Chain of UniProt Q9NPD5 (whole entry, unmodified, looked up): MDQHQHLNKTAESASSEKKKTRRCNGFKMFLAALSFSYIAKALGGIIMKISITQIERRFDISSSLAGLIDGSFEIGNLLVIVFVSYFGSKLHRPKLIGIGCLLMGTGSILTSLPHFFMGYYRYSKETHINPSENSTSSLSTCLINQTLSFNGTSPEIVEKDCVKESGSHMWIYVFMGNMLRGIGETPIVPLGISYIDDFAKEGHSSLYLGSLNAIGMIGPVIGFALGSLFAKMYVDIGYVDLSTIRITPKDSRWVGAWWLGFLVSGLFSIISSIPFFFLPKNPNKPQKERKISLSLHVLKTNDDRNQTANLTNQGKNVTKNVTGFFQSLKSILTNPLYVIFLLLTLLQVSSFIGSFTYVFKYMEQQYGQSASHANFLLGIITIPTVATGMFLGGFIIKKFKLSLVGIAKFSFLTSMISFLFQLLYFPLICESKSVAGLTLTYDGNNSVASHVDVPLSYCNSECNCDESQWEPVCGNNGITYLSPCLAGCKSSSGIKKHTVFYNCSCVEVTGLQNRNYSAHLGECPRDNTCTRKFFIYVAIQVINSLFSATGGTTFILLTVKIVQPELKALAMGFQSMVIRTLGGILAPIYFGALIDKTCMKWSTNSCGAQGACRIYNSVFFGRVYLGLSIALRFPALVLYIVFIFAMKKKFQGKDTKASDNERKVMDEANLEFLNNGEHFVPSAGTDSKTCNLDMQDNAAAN
Chain of UniProt P08183 (whole entry, looked up): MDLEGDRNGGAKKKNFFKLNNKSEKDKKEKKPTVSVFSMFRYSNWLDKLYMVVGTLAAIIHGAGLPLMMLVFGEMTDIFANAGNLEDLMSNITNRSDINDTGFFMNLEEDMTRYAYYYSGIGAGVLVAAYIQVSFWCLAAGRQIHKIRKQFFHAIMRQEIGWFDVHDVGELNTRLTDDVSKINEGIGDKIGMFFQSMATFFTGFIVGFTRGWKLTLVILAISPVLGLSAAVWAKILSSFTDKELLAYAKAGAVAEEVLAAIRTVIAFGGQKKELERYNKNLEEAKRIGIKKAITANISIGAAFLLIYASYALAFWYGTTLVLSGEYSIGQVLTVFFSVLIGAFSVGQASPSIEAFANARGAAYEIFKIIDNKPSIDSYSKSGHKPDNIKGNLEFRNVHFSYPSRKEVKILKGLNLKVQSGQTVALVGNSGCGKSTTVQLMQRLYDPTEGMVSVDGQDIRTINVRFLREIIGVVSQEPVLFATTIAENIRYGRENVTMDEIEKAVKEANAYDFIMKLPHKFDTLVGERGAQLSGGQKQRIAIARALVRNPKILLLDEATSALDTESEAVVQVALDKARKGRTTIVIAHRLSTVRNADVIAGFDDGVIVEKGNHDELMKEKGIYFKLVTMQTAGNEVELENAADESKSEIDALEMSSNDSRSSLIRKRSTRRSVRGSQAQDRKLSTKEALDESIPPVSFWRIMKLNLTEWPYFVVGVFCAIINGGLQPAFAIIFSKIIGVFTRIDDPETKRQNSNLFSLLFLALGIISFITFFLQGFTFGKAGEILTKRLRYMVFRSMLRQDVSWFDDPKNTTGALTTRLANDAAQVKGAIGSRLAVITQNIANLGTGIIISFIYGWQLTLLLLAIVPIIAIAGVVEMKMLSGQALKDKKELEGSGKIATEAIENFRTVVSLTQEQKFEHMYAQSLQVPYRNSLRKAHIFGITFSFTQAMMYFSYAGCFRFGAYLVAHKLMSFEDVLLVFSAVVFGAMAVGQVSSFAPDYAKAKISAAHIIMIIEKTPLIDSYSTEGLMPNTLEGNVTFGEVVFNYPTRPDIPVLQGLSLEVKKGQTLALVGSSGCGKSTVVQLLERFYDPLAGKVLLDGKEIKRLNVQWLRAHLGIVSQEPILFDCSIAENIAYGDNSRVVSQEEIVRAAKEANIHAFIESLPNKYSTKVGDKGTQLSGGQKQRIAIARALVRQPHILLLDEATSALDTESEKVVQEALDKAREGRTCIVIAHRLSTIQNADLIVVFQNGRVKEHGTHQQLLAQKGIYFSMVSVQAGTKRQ

| Structure (SMILES) | target or system | test | system | setting | how to read | quantity | result |
| --- | --- | --- | --- | --- | --- | --- | --- |
| Cc1cc(N)c2c(OCC(C)(C)C(=O)NC(C)C)cccc2n1 | Salmonella typhimurium | reverse mutation, plate incorporation | TA98 | 100 µg/plate, without S9 | – | mean revertant colonies | 14 colonies/plate |
| O=C(Nc1nc2cccc(-c3ccc(CN4CCS(=O)(=O)CC4)cc3)n2n1)C1CC1 | – | – | rheumatoid arthritis patients | oral, 200 mg once daily, 4 weeks, regardless of relatedness | – | patients with dizziness | 0% |
| CC(C)c1nc(N(C)S(C)(=O)=O)nc(-c2ccc(F)cc2)c1/C=C/[C@@H](O)C[C@@H](O)CC(=O)O | Solute carrier organic anion transporter family member 1B3 (SLCO1B3, Homo sapiens, UniProt Q9NPD5, M233I/S112A) | substrate, uptake | HEK293-A stably expressing SLCO1B3 | 2 min | – | Km | 9.11 µM |
| O=C(O)[C@@H](O)[C@@H](O)[C@H](O)[C@@H](O)C(=O)O | – | binding, MIDAS equilibrium dialysis LC-MS | A2AR-BRIL thermostabilized | concentration not given | baseline: no-protein control | log2 fold change | -0.124 |
| CNCCOC12CC3(C)CC(C)(CC(Cn4ncc(-c5ccc(N6CCc7cccc(C(=O)Nc8nc9ccccc9s8)c7C6)nc5C(=O)O)c4C)(C3)C1)C2 | – | – | beagle dog, male, anaesthetised | intravenous bolus, 0.03 mg/kg, 5 min | baseline: baseline | heart rate change | 8% |
| N#Cc1ccc2c(c1)[C@H]1CCCN(C(=O)c3ccc4[nH]cnc4c3)[C@H]1C2 | – | – | human | 80 mg, end of trial | – | median ACTH level | 5.9 pmol/L |
| CCCC(=O)OCSc1ccccc1C(=O)NCCNC(=O)Cn1ccc(=O)c2cc3c(cc21)OCO3 | CEM-SS | cell viability, XTT | RPMI with 10% FBS | 6 days | – | TC50 | > 100 µM |
| COc1cc(/C=C/C=C2\SC(=S)NC2=O)cc(OC)c1O | HeLa | CellTiter-Glo | – | 40 µM, 24 h, unit not given | baseline: untreated | viability | 0.82 and 0.843 |
| CCCC(=O)OCSc1ccccc1C(=O)NCCn1cc(C(=O)NCc2ncccc2C)c(=O)c2cc3c(cc21)OCO3 | CEM-SS | cell viability, XTT | RPMI with 10% FBS | 6 days | – | TC50 | > 100 µM |
| CC[C@H]1[C@@H](O)[C@@H]2[C@H](CC[C@]3(C)[C@@H]([C@H](C)CCNC(=O)NS(=O)(=O)c4ccc(C(C)(C)C)cc4)CC[C@@H]23)[C@@]2(C)CC[C@@H](O)C[C@@H]12 | ATP-dependent translocase ABCB1 (ABCB1, Homo sapiens, UniProt P08183) | – | human, plasma | arithmetic mean, with: quinidine | – | Tlast | 90.9 h |
| CCCC(=O)OCSc1ccccc1C(=O)NCCn1ccc(=O)c2cc([N+](=O)[O-])ccc21 | CEM-SS | cell viability, XTT | RPMI with 10% FBS | 6 days | – | TC50 | > 100 µM |
| COc1cc2ncnc(Nc3ccc(Oc4ccccc4)cc3C)c2cc1OC.O=C(O)C(F)(F)F | MeWo (NF1) | resazurin | – | 1 µM, 72 h, with: trametinib 0 nM | – | viability fraction | 0.806 |
| Cc1c(-c2ccc(N3CCc4cccc(C(=O)Nc5nc6ccccc6s5)c4C3)nc2C(=O)O)cnn1CC12CC3(C)CC(C)(C1)CC(OCCNCC[C@H](O)CO)(C3)C2 | – | – | anaesthetised male beagle dogs | intravenous infusion, 0.3 mg/kg/min, 15 min | baseline: vehicle | cardiac output change | -14% |
| C[C@H](O)[C@@H](O)[C@@H](O)[C@H](O)C(=O)O | – | binding, MIDAS equilibrium dialysis LC-MS | A2AR-BRIL thermostabilized | concentration not given | baseline: no-protein control | log2 fold change | 0.0517 |
| CN(C(=O)C(C)(C)c1cc(C(F)(F)F)cc(C(F)(F)F)c1)c1cnc(N2C[C@H]3COCCN3C[C@H]2CO)cc1-c1ccc(F)cc1[14CH3] | cryopreserved human hepatocytes | – | – | 0.5 µM, mean of three donors, with: 5 µM cobicistat and 1 µM CYP3cide | – | fraction metabolized via UGT | 11.9% |
| CC(C)Nc1ccnc(Nc2cccc(-c3cccnc3)c2)n1 | P-glycoprotein (human MDR1) | – | MDR1-MDCKII | 10 µM, 1 h, pH 7.4 | baseline: B-A over A-B | efflux ratio | 0.77 |
| CCCC(=O)OCSc1ccccc1C(=O)NCCn1cc(C(=O)NCc2ccc(C)cn2)c(=O)c2cc3c(cc21)OCO3 | CEM-SS | cell viability, XTT | RPMI with 10% FBS | 6 days | – | TC50 | > 100 µM |
| C=CC(=O)N(C)CCOc1c(N)ncnc1-c1cc(F)cc(NC(=O)c2ccc(C3CC3)cc2F)c1C | human hepatocytes | measured: CYP1A2 mRNA | – | – | baseline: vehicle | maximum fold induction | 5.47 |
| CCCC(=O)OCSc1ccccc1C(=O)NCCn1cc(C(=O)NCc2cccc(C)n2)c(=O)c2cc3c(cc21)OCO3 | CEM-SS | cell viability, XTT | RPMI with 10% FBS | 6 days | – | TC50 | > 100 µM |
| CC[C@H](C)C(=O)N1CCC(NC(=O)Nc2ccc(OC(F)(F)F)c(F)c2)CC1 | Caco-2 | Caco-2 permeability | – | 10 µM, 60 min, pH 7.4 apical, 7.4 basolateral, replicate 2 | basolateral to apical | percent recovery | 81% |
| CCCC(=O)OCSc1ccccc1C(=O)NCCOc1ccnc2ccc(Cl)cc12 | CEM-SS | cell viability, XTT | RPMI with 10% FBS | 6 days | – | TC50 | 46.3 µM |
| Cc1cc(Nc2ccc(S(F)(F)(F)(F)F)cc2)n2nc(C(C)(F)F)nc2n1 | Plasmodium falciparum | 12-lead ECG | malaria patients | oral, 250 mg, increase above 60 ms | – | patients with QTcB increase | 0% |
| CCc1cc(C(=O)NC)c2nccc(N3CCc4c(cc(Cn5ccnc5)cc4-c4cn(C)nc4C(F)(F)F)C3=O)c2c1 | – | – | Sprague Dawley rats | oral, 50 mg/kg once daily, 7 days | – | blood HDW | 21.7 ± 0.83 g/L |
| CC(C)n1c(/C=C/C(O)CC(O)CC(=O)O)c(-c2ccc(F)cc2)c2ccccc21 (centres unmarked) | Solute carrier organic anion transporter family member 1B3 (SLCO1B3, Homo sapiens, UniProt Q9NPD5, S112A) | uptake, substrate | HEK293-A stably expressing SLCO1B3 | 2 min | – | Vmax | 1240 ± 481 pmol/mg protein/min |
| CC(C)Nc1ccnc(Nc2cccc(C(C)(C)C)c2)n1 | P-glycoprotein (human MDR1) | – | MDR1-MDCKII | 10 µM, 1 h, pH 7.4 | baseline: B-A over A-B | efflux ratio | 0.81 |
| CC[C@H](CO)N(CCN(N=O)[C@H](CC)CO)N=O | Salmonella typhimurium | mutagenicity, Ames plate incorporation | TA1535 | 50 µg/plate, without S9, methanol | – | revertant colonies per plate | 15 ± 7 |

Excerpt of the above:
| Structure (SMILES) | target or system | test | system | setting | how to read | quantity | result |
| --- | --- | --- | --- | --- | --- | --- | --- |
| O=C(O)[C@@H](O)[C@@H](O)[C@H](O)[C@@H](O)C(=O)O | – | binding, MIDAS equilibrium dialysis LC-MS | A2AR-BRIL thermostabilized | concentration not given | baseline: no-protein control | log2 fold change | -0.124 |
| CNCCOC12CC3(C)CC(C)(CC(Cn4ncc(-c5ccc(N6CCc7cccc(C(=O)Nc8nc9ccccc9s8)c7C6)nc5C(=O)O)c4C)(C3)C1)C2 | – | – | beagle dog, male, anaesthetised | intravenous bolus, 0.03 mg/kg, 5 min | baseline: baseline | heart rate change | 8% |
| N#Cc1ccc2c(c1)[C@H]1CCCN(C(=O)c3ccc4[nH]cnc4c3)[C@H]1C2 | – | – | human | 80 mg, end of trial | – | median ACTH level | 5.9 pmol/L |
| CCCC(=O)OCSc1ccccc1C(=O)NCCNC(=O)Cn1ccc(=O)c2cc3c(cc21)OCO3 | CEM-SS | cell viability, XTT | RPMI with 10% FBS | 6 days | – | TC50 | > 100 µM |
